Assay results collected from several papers.
Each line is one published result; not all experiments were run side by side. Values joined by “and” are separate records of one study, mostly repeats; a detail may differ. ± gives the spread as reported. ≈ marks a conversion by molar mass, not a printed value.

| Compound | assay | test system | conditions | how to read | quantity | result |
| --- | --- | --- | --- | --- | --- | --- |
| CN1C(=O)[C@@H](NC(=O)c2nnc(Cc3ccccc3)[nH]2)COc2cccnc21 |  | human, both sexes | oral, 800 mg single, 24 h | reference: dose | unchanged dose in urine | < 1% |
| C=CC(=O)N(C)CCOc1c(N)ncnc1-c1cc(F)cc(NC(=O)c2ccc(C3CC3)cc2F)c1C |  | human, whole blood | oral, 600 mg single dose |  | AUC | 1160 ng·h/mL |
| CCN(CC)Cc1ccc2cc(COC(=O)Nc3ccc(C(=O)NO)cc3)ccc2c1 |  | rat plasma | 800 ng/mL, 4 h, 10 °C, autosampler | reference: nominal concentration | stability relative error | 96.2% |
| Cc1c(C(=O)O)ccc2c3n(nc12)[C@@H]1[C@H](C3)N(CC2CC2)[C@@]2(C(=O)Nc3cc(Cl)ccc32)[C@H]1c1cccc(Cl)c1F |  | female BALB/c nude mice, plasma | oral, 2 mg/kg once daily, 4 h, SJSA-1 tumour-bearing |  | plasma concentration | 1710 nM and 2030 nM and 1910 nM and 1580 nM |
| CNCc1ccc(-c2[nH]c3cc(F)cc4c3c2CCNC4=O)cc1 |  | human patients | oral, 480 mg twice daily, all grades |  | dyspnoea incidence | 33.3% |
| Cc1ccc([C@@H]2O[C@H](CO)[C@@H](O)[C@H](O)[C@H]2O)cc1Cc1ccc(-c2ccc(F)cc2)s1 |  | Japanese type 2 diabetes patients | 200 mg, day 1, 24 h urine collection | reference: baseline | urinary calcium excretion change | -25.7 mg |
| COc1ccc2c(c1)CN(C(=O)CCN1CCC(Cc3ccccc3)CC1)CC[S@@+]2[O-] | telemetry | conscious male beagle dogs | intravenous, 2 mg/kg, 1 h |  | QTc interval | 250 ± 4 ms |
| CCCOc1ccc(-c2ccc(C#N)cc2)cc1 |  | Sprague-Dawley rat, female, fetus | 5000 ng/mL in perfusate, 50 (unit not given), high dose, mixture of 21 LCMs |  | median fetal accumulation | 16.5 ng/g |
| CCN1CCN(Cc2ccc(NC(=O)c3ccc(C)c(NC(=O)c4cncc(-c5cccs5)c4)c3)cc2C(F)(F)F)CC1 |  | C57BL/6 mice, epithelial lining fluid | intraperitoneal, 15 mg/kg |  | extrapolated AUC share | 5.3% |
| CNC(=O)c1ccc(-c2cnc3ncc(Cc4ccc5ncccc5c4)n3n2)cc1F | refers to: Pruritus | other cancer patients | oral, 600 mg twice daily, expansion cohort, grade 3-4 |  | patients with adverse event | 0% |
| Cc1ccc(Sc2ccccc2N2CCNCC2)c(C)c1 | refers to: ALT increased | healthy adult men | oral, 10 mg daily, 12 days |  | participants with TEAE | 0% |
| Cc1cc(NC2CCN(C(=O)OC3CCN(C(=O)/C=C/CN(C)C)C3)CC2)n2ncc(C(C)C)c2n1 (stereo not drawn) |  | patients with advanced solid tumours | dose not given, QD arm, any grade |  | patients with Hypotension | 7% |
| CC(F)(F)c1nc2nc(CO)cc(Nc3ccc(S(F)(F)(F)(F)F)cc3)n2n1 | LC-MS/MS | malaria patients, plasma | oral, 250 mg of parent drug |  | half-life, metabolite | 101 h |
| C=CCN1CC(=O)N2[C@@H](Cc3ccc(O)cc3F)C(=O)N(Cc3cccc(N4CC(N5CCN(CC)CC5)C4)n3)C[C@@H]2N1C(=O)NCc1ccccc1 |  | advanced solid tumour patients | oral, 160 mg twice daily, grade ≥3, dose-escalation |  | treatment-related vomiting | 0% |
| N#Cc1ccc2c(c1)[C@H]1CCCN(C(=O)c3ccc4[nH]cnc4c3)[C@H]1C2 |  | human | 360 mg, day 7 |  | median ACTH level | 7.5 pmol/L |
| O=C(Cn1cnc([N+](=O)[O-])n1)Nc1ccc(N2CCOCC2)c(Cl)c1 |  | aqueous buffer | pH 7.4 |  | thermodynamic solubility | 4.29 µM (≈ 1.57 µg/mL) |
| Cc1nc2cccc(OCC(C)(C)C(=O)NC(C)C)c2c(N)c1C(=O)O |  | Sprague-Dawley rat, female, plasma | oral, 10 mg/kg, day 7 over day 1, 7-day repeated dosing | reference: day 7 over day 1 | AUClast ratio | 1.2 ± 0.55 |
| O=C(O)c1cc(O)c(O)c(O)c1 | LC-MS/MS | male Ross broilers, serum | intravenous, 0.49 mg/kg BW |  | Vd | 2.19 ± 1.98 L/kg |
| COc1cccc(OC)c1-c1cc(C(=O)NC2(C(=O)O)C3CC4CC(C3)CC2C4)nn1-c1ccc(C(=O)N(C)CCCN(C)CCCN(C)C(=O)CN2CCN(CC(=O)[O-])CCN(CC(=O)[O-])CCN(CC(=O)[O-])CC2)cc1C(C)C.[177Lu+3] (stereo not drawn) |  | mouse, HT-29 xenograft | 72 h post injection, biodistribution | reference: tumour over liver uptake | tumour-to-liver ratio | 17.6 |
| O=C(O)CCC(=O)O.[2H]C([2H])([2H])Oc1cc(C)c2[nH]ccc2c1CN1CC[C@@H](C2CC2)C[C@H]1c1ccc(C(=O)O)cc1 | multiple ascending dose | healthy Chinese subjects | 300 mg once daily |  | subjects with elevated bilirubin TEAE | 0% |
| CC(C)NCCCC[C@@H]1NC(=O)[C@H](Cc2ccc(O)cc2)NC(=O)[C@H](Cc2ccccc2)NC(=O)CC[C@H](C(=O)N[C@@H](CCCCNC(C)C)C(=O)N[C@@H](CCCCNC(=O)[C@H](CCC(=O)O)NC(=O)[C@H](CCC(=O)O)NC(=O)[C@H](CCC(=O)O)NC(=O)CN2CCN(CC(=O)O)CCN(CC(=O)O)CCN(CC(=O)O)CC2)C(N)=O)NC(=O)CNC(=O)[C@H](Cc2ccc3ccccc3c2)NC(=O)[C@@H](CCCNC(=N)N)NC1=O [gallium-68 labelled] |  | mouse with Z-138 xenograft, bone | intravenous, 1 h |  | tissue uptake | 0.09 %ID/g |

A few entries again:
| Compound | assay | test system | conditions | how to read | quantity | result |
| --- | --- | --- | --- | --- | --- | --- |
| C=CC(=O)N(C)CCOc1c(N)ncnc1-c1cc(F)cc(NC(=O)c2ccc(C3CC3)cc2F)c1C |  | human, whole blood | oral, 600 mg single dose |  | AUC | 1160 ng·h/mL |
| CCN(CC)Cc1ccc2cc(COC(=O)Nc3ccc(C(=O)NO)cc3)ccc2c1 |  | rat plasma | 800 ng/mL, 4 h, 10 °C, autosampler | reference: nominal concentration | stability relative error | 96.2% |
